# Experimental data collected from several papers.
# Parts stem from different laboratories: compare values within a part only.
# Chain of UniProt Q32MK0 (whole entry, looked up): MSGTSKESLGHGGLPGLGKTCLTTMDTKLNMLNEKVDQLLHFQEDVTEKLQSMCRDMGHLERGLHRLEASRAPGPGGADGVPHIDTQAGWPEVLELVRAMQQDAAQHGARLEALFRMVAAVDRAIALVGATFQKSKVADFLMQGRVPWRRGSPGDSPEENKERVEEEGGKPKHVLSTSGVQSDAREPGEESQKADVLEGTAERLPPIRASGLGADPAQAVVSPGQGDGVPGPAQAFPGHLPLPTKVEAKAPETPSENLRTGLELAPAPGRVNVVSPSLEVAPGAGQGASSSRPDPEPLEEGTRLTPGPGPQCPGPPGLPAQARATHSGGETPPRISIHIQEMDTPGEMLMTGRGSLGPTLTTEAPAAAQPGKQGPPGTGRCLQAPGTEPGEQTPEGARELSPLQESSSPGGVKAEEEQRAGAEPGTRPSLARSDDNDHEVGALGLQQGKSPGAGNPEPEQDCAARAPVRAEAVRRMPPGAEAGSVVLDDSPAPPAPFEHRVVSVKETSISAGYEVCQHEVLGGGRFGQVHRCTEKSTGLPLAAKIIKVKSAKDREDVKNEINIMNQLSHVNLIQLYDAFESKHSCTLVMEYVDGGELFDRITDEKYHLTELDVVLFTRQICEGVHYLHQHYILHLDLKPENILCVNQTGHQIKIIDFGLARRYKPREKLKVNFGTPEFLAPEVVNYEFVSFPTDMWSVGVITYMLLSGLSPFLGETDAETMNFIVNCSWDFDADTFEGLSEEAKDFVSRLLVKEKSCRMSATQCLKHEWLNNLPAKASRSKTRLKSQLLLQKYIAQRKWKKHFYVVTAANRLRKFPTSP
# Chain of UniProt Q92772 (whole entry, looked up): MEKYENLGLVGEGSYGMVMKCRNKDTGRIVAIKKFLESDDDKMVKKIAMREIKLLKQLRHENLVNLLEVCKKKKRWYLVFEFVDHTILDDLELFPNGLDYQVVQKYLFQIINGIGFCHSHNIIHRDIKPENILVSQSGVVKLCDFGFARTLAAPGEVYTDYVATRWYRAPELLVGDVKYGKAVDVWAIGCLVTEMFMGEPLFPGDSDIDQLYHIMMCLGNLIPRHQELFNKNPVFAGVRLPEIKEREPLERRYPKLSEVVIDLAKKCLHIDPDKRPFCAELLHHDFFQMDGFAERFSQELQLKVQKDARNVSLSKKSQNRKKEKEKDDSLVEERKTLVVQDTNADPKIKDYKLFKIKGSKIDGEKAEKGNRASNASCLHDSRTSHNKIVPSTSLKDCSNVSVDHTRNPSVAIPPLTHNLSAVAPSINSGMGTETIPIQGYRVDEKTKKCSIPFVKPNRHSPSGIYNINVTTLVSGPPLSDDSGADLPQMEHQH
# Chain of UniProt Q13163 (whole entry, looked up): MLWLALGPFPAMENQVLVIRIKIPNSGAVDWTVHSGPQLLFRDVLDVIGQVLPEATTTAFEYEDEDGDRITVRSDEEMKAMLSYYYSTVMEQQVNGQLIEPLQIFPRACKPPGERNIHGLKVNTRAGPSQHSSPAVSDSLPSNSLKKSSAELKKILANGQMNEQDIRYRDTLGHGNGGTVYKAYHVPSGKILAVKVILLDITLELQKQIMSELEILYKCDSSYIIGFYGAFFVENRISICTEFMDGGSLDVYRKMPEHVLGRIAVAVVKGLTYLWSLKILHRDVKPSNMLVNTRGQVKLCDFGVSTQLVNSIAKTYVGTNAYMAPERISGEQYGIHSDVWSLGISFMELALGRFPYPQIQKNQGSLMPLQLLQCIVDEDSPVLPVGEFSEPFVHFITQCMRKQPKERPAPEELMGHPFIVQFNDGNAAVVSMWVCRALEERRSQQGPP
# Chain of UniProt Q9UK32 (whole entry, looked up): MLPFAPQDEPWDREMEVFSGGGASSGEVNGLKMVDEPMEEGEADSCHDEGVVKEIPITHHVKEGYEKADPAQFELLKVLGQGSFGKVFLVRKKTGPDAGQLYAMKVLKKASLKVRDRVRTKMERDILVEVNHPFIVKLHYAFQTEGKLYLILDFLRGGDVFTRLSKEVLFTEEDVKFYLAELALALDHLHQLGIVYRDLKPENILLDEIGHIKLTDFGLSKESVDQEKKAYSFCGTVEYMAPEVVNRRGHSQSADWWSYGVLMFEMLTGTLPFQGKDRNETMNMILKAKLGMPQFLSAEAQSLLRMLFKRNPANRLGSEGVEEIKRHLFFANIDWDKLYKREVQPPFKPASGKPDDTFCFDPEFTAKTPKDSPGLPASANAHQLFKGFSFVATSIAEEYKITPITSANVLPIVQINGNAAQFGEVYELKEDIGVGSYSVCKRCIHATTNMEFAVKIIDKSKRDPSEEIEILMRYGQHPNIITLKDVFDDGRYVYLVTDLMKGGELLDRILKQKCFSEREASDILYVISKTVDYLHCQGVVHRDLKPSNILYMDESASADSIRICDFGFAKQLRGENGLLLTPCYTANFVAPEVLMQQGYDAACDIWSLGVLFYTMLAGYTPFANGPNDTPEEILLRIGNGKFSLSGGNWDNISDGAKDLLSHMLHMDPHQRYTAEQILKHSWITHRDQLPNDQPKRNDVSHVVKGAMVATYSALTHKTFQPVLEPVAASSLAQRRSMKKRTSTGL
# Chain of UniProt Q07002 (whole entry, looked up): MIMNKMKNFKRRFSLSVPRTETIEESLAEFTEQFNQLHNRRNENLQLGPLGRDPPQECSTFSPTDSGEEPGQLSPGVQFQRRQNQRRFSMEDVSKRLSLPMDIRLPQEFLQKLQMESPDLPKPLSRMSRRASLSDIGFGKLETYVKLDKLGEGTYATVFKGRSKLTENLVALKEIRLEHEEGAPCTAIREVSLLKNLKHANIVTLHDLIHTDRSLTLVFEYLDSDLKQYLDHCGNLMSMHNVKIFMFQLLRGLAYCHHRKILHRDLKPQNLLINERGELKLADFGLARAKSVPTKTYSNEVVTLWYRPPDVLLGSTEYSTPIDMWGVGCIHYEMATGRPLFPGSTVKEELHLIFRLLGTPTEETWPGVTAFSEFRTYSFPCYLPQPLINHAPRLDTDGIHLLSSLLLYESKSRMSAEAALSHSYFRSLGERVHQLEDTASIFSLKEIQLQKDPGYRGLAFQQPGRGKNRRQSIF
# Chain of UniProt P29597 (whole entry, looked up): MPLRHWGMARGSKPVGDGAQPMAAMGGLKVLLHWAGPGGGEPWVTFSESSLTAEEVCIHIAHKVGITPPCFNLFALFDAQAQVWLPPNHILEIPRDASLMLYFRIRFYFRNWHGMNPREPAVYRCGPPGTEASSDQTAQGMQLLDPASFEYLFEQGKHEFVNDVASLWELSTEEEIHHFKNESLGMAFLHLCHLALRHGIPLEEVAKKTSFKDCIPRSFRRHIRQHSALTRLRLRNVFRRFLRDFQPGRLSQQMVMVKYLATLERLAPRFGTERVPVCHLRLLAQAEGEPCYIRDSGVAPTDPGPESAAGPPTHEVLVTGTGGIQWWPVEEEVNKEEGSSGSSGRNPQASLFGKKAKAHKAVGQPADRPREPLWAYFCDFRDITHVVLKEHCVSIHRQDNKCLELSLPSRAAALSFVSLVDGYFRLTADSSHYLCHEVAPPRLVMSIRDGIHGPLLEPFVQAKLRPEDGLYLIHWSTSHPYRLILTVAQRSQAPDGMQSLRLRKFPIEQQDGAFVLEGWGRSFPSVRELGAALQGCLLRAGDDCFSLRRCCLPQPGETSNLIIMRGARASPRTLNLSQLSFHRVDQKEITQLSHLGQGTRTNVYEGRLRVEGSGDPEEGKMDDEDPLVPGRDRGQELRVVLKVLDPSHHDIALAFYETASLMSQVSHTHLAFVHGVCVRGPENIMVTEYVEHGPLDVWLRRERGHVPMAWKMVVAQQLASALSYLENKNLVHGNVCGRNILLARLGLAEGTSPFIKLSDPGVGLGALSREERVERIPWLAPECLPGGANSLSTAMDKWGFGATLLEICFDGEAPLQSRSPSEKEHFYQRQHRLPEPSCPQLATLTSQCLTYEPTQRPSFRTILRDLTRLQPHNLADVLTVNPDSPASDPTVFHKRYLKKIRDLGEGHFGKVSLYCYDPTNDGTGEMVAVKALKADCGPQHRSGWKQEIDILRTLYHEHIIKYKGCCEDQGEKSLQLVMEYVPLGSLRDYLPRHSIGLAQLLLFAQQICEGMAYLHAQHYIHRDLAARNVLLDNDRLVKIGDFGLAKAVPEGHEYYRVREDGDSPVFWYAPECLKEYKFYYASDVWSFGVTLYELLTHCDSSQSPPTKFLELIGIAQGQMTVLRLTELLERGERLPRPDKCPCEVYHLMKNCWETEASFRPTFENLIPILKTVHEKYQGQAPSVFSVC
# Chain of UniProt O75582 (whole entry, looked up): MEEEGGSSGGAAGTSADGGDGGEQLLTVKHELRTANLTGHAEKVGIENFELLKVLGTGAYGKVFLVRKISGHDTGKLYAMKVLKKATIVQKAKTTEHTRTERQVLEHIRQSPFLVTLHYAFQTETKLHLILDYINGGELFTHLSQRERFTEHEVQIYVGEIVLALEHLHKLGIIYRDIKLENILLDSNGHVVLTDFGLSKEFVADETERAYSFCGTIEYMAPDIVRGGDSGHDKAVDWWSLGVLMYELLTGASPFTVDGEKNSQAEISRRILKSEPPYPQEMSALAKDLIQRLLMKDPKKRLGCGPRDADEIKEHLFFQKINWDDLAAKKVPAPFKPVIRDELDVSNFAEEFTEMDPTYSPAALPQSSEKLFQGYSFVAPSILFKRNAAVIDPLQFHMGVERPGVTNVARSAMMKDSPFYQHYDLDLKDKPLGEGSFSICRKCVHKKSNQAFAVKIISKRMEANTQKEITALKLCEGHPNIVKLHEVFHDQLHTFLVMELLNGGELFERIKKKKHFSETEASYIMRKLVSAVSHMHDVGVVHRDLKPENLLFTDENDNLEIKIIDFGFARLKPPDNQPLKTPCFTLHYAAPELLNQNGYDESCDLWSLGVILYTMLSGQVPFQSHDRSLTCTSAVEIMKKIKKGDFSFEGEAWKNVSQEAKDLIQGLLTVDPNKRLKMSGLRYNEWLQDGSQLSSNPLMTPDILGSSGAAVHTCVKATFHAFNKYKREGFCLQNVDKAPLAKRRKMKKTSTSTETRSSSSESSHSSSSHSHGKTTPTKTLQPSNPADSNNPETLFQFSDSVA

# Set 1 — organism: Sarcocystis neurona; effect on: parasite growth; tested at: concentration not given; setting: second screen; relative to: untreated
SMILES,log2 fold change
COc1nc(C)nc(Cl)c1NC1=NCCN1.Cl,0.48
CC(C)C[C@H](NC(=O)[C@@H](COC(C)(C)C)NC(=O)[C@H](Cc1ccc(O)cc1)NC(=O)[C@H](CO)NC(=O)[C@H](Cc1c[nH]c2ccccc12)NC(=O)[C@H](Cc1cnc[nH]1)NC(=O)[C@@H]1CCC(=O)N1)C(=O)N[C@@H](CCCNC(=N)N)C(=O)N1CCC[C@H]1C(=O)NNC(N)=O,0.19
CN1[C@@H]2CC[C@H]1C[C@@H](OC(c1ccccc1)c1ccccc1)C2.CS(=O)(=O)O,0.3
"CN(C)CC[C@@H](c1ccc(Br)cc1)c1ccccn1.O=C(O)/C=C\C(=O)O (single isomer, unassigned)",0.04

# Set 2 — effect on: cell-free assay; technique: competition with immobilised ligand; tested at: 1 µM
# Compound: CCCOc1ccc([C@H]2[C@H](C(=O)O)[C@@H](c3ccc4c(c3)OCO4)CN2CC(=O)Nc2c(CC)cccc2CC)cc1
target,remaining binding [%]
"Dual specificity mitogen-activated protein kinase kinase 5 (MAP2K5, Homo sapiens, UniProt Q13163)",63
"Myosin light chain kinase (MYLK3, Homo sapiens, UniProt Q32MK0)",86
"Epidermal growth factor receptor (EGFR, Homo sapiens, UniProt P00533, del746-750)",89
"Epidermal growth factor receptor (EGFR, Homo sapiens, UniProt P00533, T790M)",82
"Ribosomal protein S6 kinase alpha-5, N-terminal kinase domain (RPS6KA5, Homo sapiens, UniProt O75582)",98
"Non-receptor tyrosine-protein kinase TYK2, JH1 (TYK2, Homo sapiens, UniProt P29597)",51
"Tyrosine-protein kinase ABL1, phosphorylated (ABL1, Homo sapiens, UniProt P00519, H396P)",81
"Ribosomal protein S6 kinase alpha-6, N-terminal kinase domain (RPS6KA6, Homo sapiens, UniProt Q9UK32)",78
"Cyclin-dependent kinase-like 2 (CDKL2, Homo sapiens, UniProt Q92772)",84
"Cyclin-dependent kinase 18 (CDK18, Homo sapiens, UniProt Q07002)",100
"Epidermal growth factor receptor (EGFR, Homo sapiens, UniProt P00533, L861Q)",100

# Set 3 — host: human; sample: microsomes or S9; tested at: 2 µM; time: 0.5 h
SMILES,remaining compound [%]
Nc1c(NC(=O)N2CCCC2)c(-c2ccc(Cl)cc2)nn1-c1cc(F)ccc1F,83.6
CCN1CCC(N(C)S(=O)(=O)c2c(C)cc(C(C)(C)C)cc2C)CC1,61.6
COC(C(=O)Nc1ccc(S(=O)(=O)Nc2cccc(Cl)c2Cl)cc1)c1ccccc1 (centres unmarked),51.1

# Set 4 — technique: RNAcompete; form: RNA; sample: in vitro; tested at: 20 nM; setting: 7-mer, probes averaged, single round; relative to: mean of 7-mers; direction: higher = stronger binding
# Target: PABPC1L2, full length, GST fusion (mouse, UniProt A0ABA7IW68)
# Residues (chain): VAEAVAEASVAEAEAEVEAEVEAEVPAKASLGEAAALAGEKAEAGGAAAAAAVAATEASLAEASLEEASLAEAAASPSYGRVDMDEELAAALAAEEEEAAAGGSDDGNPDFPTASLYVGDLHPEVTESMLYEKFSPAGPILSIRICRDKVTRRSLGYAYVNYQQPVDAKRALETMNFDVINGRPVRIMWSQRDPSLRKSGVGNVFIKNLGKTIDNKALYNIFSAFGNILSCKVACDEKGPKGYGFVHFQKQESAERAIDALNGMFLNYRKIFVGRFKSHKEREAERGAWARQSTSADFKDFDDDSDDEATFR
Oligonucleotide,7-mer Z-score
GAAACGA,0.392
UGCUCCG,-0.32
AACUUUU,-0.101
GGUACAU,-0.0518
UUGCAAA,0.331
AGUUCGA,-0.347
AUUGUUU,-0.407
AGGAGUU,-0.0863

# Some of these lines once more (set 2):
target,remaining binding [%]
"Tyrosine-protein kinase ABL1, phosphorylated (ABL1, Homo sapiens, UniProt P00519, H396P)",81
"Myosin light chain kinase (MYLK3, Homo sapiens, UniProt Q32MK0)",86
